Assay results gathered from unrelated publications.
Lines come from different studies, so protocols differ. Several values in a cell are separate wells, animals, samples, runs or records. ± marks the error that the study gave.
Tripartite terminase subunit 3 C-terminal nuclease domain: Tripartite terminase subunit 3, C-terminal nuclease domain (Human betaherpesvirus 5, UniProt P16732)
Chain of UniProt P16732 (whole entry, looked up): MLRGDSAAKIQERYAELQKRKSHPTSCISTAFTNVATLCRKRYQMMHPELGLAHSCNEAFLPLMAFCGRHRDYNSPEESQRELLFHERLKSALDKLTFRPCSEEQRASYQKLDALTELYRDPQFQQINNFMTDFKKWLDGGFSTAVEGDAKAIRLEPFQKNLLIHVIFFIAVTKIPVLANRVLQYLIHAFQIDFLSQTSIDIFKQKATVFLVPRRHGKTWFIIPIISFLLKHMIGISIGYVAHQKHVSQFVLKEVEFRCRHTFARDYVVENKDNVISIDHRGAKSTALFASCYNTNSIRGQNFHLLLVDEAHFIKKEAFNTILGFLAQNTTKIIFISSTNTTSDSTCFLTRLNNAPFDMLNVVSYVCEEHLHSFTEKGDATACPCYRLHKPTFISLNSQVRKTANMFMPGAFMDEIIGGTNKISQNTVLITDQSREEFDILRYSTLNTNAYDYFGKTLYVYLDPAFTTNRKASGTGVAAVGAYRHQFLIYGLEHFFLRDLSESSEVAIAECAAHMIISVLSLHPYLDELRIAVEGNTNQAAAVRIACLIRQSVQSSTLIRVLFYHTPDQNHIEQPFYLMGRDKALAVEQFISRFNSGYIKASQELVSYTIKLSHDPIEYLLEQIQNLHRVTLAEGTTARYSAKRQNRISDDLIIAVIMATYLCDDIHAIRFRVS
ache: Acetylcholinesterase (ache, Electrophorus electricus, UniProt O42275)
Chain of UniProt O42275 (whole entry, looked up): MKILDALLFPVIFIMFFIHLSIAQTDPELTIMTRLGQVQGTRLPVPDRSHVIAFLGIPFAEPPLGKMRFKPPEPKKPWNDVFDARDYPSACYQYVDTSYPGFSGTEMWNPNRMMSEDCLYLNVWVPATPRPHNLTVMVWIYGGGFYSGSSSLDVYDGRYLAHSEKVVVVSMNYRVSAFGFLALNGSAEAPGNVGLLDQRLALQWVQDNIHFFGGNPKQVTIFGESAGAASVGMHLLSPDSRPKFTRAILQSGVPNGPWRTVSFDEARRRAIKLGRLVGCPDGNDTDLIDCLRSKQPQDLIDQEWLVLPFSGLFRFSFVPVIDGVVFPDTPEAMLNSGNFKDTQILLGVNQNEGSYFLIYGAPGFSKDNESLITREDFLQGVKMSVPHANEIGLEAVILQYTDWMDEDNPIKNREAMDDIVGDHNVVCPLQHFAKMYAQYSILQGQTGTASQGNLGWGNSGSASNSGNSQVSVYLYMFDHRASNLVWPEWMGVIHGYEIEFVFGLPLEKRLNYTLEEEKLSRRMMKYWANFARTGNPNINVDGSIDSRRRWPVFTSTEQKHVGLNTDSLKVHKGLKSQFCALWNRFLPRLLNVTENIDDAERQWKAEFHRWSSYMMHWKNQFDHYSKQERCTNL
AKR1C2: Aldo-keto reductase family 1 member C2 (AKR1C2, Homo sapiens, UniProt P52895)
Chain of UniProt P52895 (whole entry, looked up): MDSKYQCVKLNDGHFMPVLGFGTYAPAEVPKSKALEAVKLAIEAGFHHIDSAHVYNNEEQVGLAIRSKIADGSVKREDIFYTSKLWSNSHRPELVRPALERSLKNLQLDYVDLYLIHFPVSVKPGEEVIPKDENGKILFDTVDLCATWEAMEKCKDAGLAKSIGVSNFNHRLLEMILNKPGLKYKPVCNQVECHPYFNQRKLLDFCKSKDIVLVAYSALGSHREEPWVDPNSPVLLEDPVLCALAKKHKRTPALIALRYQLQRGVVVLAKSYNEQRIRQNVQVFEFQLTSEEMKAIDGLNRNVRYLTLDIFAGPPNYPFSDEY
CTSB: Cathepsin B (CTSB, Homo sapiens, UniProt P07858)
Chain of UniProt Q9HBA0 (whole entry, unmodified, looked up): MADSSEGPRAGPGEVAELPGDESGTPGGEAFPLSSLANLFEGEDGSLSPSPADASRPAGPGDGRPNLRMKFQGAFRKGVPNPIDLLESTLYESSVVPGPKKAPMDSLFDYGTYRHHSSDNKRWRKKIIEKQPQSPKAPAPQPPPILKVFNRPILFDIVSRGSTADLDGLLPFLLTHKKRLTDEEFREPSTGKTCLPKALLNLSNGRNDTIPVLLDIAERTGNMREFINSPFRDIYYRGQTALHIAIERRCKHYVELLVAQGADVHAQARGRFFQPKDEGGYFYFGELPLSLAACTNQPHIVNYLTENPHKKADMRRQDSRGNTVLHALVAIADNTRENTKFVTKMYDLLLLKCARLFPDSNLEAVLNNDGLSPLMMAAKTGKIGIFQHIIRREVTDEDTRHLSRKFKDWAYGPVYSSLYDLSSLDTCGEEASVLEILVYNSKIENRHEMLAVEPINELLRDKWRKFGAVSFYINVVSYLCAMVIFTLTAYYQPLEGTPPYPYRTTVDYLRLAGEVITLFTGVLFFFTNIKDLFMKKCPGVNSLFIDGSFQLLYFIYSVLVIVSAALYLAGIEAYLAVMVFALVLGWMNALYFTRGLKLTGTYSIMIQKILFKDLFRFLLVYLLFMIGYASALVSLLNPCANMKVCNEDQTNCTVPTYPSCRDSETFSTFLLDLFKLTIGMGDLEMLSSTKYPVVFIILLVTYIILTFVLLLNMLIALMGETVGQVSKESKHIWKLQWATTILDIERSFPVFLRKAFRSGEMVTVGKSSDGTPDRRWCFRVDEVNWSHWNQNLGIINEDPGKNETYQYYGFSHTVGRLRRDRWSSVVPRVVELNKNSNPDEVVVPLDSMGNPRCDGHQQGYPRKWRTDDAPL
Chain of UniProt Q00987 (whole entry, looked up): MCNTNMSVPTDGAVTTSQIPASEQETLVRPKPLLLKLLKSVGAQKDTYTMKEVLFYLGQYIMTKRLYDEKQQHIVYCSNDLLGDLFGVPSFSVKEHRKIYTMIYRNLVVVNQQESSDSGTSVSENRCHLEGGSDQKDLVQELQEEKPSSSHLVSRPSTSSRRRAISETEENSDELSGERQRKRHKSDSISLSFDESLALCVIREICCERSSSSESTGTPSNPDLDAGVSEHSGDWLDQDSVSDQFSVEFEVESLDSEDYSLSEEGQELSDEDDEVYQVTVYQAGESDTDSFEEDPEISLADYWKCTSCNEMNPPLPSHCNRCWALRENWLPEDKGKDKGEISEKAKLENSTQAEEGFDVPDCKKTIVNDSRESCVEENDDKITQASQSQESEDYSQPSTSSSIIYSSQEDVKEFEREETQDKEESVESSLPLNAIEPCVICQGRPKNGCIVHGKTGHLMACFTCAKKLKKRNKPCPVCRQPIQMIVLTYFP
Chain of UniProt P10997 (whole entry, looked up): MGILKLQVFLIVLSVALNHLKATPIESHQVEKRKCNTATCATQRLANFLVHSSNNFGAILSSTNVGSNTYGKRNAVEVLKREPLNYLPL
Chain of UniProt Q04759 (whole entry, looked up): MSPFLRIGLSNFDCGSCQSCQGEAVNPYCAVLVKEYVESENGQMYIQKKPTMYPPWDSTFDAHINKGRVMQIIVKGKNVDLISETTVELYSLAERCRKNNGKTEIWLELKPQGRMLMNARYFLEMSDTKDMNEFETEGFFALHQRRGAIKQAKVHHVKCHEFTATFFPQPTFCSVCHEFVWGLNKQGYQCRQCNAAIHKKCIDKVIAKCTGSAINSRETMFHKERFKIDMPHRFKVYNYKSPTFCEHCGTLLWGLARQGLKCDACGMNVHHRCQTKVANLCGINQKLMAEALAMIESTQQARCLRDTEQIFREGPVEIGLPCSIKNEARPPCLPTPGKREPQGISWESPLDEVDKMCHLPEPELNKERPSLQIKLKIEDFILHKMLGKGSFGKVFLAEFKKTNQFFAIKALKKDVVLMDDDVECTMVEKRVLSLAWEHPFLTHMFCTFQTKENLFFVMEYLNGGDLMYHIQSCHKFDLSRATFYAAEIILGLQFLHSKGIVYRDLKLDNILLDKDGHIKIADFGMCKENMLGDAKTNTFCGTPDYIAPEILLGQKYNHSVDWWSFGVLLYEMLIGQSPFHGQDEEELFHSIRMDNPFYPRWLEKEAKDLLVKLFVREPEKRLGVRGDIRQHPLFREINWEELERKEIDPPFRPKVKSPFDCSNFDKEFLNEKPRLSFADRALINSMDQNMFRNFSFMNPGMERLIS
Chain of UniProt P09237 (whole entry, looked up): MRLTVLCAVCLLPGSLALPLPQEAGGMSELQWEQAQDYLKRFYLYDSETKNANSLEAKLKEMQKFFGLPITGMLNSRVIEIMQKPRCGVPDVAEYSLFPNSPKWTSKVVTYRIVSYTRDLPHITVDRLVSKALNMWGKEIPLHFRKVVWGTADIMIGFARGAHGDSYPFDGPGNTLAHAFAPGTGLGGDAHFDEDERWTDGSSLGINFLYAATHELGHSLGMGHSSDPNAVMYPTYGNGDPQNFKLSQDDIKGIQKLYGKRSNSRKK
Chain of UniProt P08592 (whole entry, looked up): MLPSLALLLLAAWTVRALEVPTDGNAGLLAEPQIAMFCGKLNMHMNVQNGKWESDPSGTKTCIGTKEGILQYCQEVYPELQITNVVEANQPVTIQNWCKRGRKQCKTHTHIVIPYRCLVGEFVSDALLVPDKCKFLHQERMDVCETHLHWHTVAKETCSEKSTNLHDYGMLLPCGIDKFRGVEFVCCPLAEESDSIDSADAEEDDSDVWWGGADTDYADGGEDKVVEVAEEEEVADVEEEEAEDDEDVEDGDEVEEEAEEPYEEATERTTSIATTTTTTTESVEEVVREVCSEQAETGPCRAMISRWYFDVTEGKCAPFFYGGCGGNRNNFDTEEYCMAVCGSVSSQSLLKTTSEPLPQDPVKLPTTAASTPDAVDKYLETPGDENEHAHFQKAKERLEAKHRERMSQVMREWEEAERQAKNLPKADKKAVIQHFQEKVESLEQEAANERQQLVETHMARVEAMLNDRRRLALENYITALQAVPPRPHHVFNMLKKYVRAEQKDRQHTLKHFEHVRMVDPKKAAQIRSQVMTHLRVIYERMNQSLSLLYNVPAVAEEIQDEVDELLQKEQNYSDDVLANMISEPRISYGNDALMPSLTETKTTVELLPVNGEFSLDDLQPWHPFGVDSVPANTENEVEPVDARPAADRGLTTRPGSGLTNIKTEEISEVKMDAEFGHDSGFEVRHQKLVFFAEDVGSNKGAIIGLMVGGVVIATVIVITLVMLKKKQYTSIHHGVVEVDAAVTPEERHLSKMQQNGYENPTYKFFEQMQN

With `CC(=O)N(C)[C@@H](Cc1ccccc1)C(=O)N[C@@H](Cc1ccccc1)C(=O)N[C@@H](CC1CCCCC1)C(=O)N[C@@H](CCCNC(=N)N)C(=O)N[C@@H](CC(C)C)C(=O)N[C@@H](CCCNC(=N)N)C(=O)N[C@@H](CCCNC(=N)N)C(=O)N[C@H](C)C(=O)N[C@@H](CCCNC(=N)N)C(=O)N1CCC[C@H]1C(=O)N[C@@H](CCCCN)C(N)=O` the inhibition was > 40% (Oprk1 (Rattus norvegicus, UniProt P34975); adenylyl cyclase activity, agonist; CHO cells; 10 µM; relative to: dynorphin A(1-13) amide).
`O=C(NCc1ccc(F)c(F)c1)c1cn(Cc2ccc(F)cc2)cc(O)c1=O` gave an inhibition of 7% (Tripartite terminase subunit 3 C-terminal nuclease domain; endonuclease activity, inhibitor, ELISA; 20 µM).
`C[C@@](O)(C(F)F)[C@H](NC(=O)c1ccc(C#CC#CC2CC2)cc1)C(=O)NO` gave an inhibition of ≤ 30% (Matrilysin (MMP7, Homo sapiens, UniProt P09237); enzyme activity, inhibitor; 30 µM).
The inhibition of `O=C(NCc1cccc2[nH]cc(C(=O)C(F)(F)F)c12)c1cn(Cc2ccc(F)cc2)cc(O)c1=O` is reported as 14% (Tripartite terminase subunit 3 C-terminal nuclease domain; endonuclease activity, inhibitor, ELISA; 20 µM).
With `Cc1ccc(Nc2c(NC3CCN(Cc4ccccc4)CC3)c(=O)c2=O)cc1` the inhibition was 69.5% (ache; enzyme activity, inhibitor, Ellman; 25 µM).
`Cc1c(C(=O)Nc2cccc(C(F)(F)F)c2)cc(-c2ccccc2)n1CCCN1CCOCC1` — result for inhibition: “no inhibition” (TRPV4 (Homo sapiens, UniProt Q9HBA0, Y591H); calcium influx, inhibitor; HeLa cells transfected; 10 nM, together with: 30% hypotonicity).
The inhibition of `CC(C)(COP(=O)(O)OP(=O)(O)OC[C@H]1O[C@@H](n2cnc3c(N)ncnc32)[C@H](O)[C@@H]1OP(=O)(O)O)[C@@H](O)C(=O)NCCC(=O)NCCSCCC(=O)N[C@@H](CO)C(=O)NCC(=O)N[C@@H](CCCNC(=N)N)C(=O)NCC(=O)N[C@@H](CCCCN)C(N)=O` is reported as 10 to 40% (KAT8 (Homo sapiens, UniProt Q9H7Z6); enzyme activity, inhibitor; 1 µM).
With `COc1ccc(Nc2c3c(nc4ccccc24)CCCC3)nc1` the inhibition was 54.3% (ache; enzyme activity, inhibitor, Ellman; 100 µM).
With `S=C(NCc1ccccn1)NCc1ccccn1` the inhibition was 59.1% (AMY2 (Sus scrofa, UniProt P00690); enzyme activity, inhibitor; 1000 µg/mL).
For `CCOC(=O)[C@H]1Cc2c(cc([N+](=O)[O-])cc2[N+](=O)[O-])[C@@H](O)[C@@]12C(=O)Nc1ccccc12`, the inhibition was 71.6 ± 3.8% (MDM2 (Homo sapiens, UniProt Q00987); 1 µM).
`Cc1ccnc(Nc2c3c(nc4ccccc24)CCC(C)C3)c1` (centres unmarked) has an inhibition of 79.5% (ache; enzyme activity, inhibitor, Ellman; 50 µM).
With `COC1CC(=O)N(C)C=CCCCC(=O)N(C)C(C(C)C)C(=O)N(C)C(CC(C)C)C(=O)OC(C(C)C)CC(C)C1` (centres unmarked) the inhibition was > 70% (TACR2 (Homo sapiens, UniProt P21452); β-arrestin recruitment, antagonist; 20 µM).
`C[C@]12CC[C@@H]3c4ccc(O)c(Cl)c4CC[C@H]3[C@@H]1CCC2=O` has an inhibition of 25% (AKR1C2; enzyme activity, inhibitor, absorbance; 100 µM, pH 9).
`COc1ccnc(Nc2c3c(nc4ccccc24)CCCC3)c1` gave an inhibition of 96.2 ± 4.11% (ache; 100 µM).
`O=c1c(NCc2ccc(Br)cc2)c(NC2CCN(Cc3ccccc3)CC2)c1=O` gave an inhibition of 42.9% (ache; enzyme activity, inhibitor, Ellman; 12.5 µM).
`C[C@]12CCC[C@H]1[C@@H]1CCc3c(cc(Br)c(O)c3Br)[C@H]1CC2` gave an inhibition of 68% (AKR1C2; enzyme activity, inhibitor, absorbance; 10 µM, pH 9).
For `Cc1ccnc(Nc2c3c(nc4ccc(Cl)cc24)CCCC3)c1`, the inhibition was 67.7% (ache; enzyme activity, inhibitor, Ellman; 100 µM).
For `Cc1ccc(N2CC3CCC(C2)N3C)cc1C(=O)N[C@H](C)c1cc(-c2cnn(C)c2)nc2ccccc12`, inhibition read “no inhibition” (CTSB; enzyme activity; concentration not given).
For `CC[C@H](C)[C@@H]1NC(=O)CNC(=O)[C@H](CCSC)NC(=O)[C@H](C(C)C)NC(=O)[C@H]([C@@H](C)O)NC(=O)[C@@H]2CSSC[C@@H]3NC(=O)[C@H](Cc4c[nH]cn4)NC(=O)[C@@H](NC(=O)[C@@H](NC(=O)[C@H](Cc4ccccc4)NC(=O)[C@H](C)N)[C@@H](C)O)CSSC[C@@H](C(=O)N[C@@H](CC(C)C)C(=O)O)NC(=O)[C@H](CSSC[C@H](NC(=O)[C@H](CO)NC(=O)[C@H](CCCNC(=N)N)NC(=O)[C@H](CCCNC(=N)N)NC3=O)C(=O)N[C@@H](Cc3ccc(O)cc3)C(=O)N[C@@H](CO)C(=O)N[C@@H]([C@@H](C)O)C(=O)N[C@@H](CCC(=O)O)C(=O)N[C@@H](Cc3ccc(O)cc3)C(=O)N[C@@H](CO)C(=O)N[C@@H](Cc3ccc(O)cc3)C(=O)NCC(=O)N[C@@H]([C@@H](C)O)C(=O)N2)NC(=O)[C@H](Cc2ccccc2)NC(=O)[C@H](CCCNC(=N)N)NC(=O)[C@H](Cc2c[nH]cn2)NC(=O)[C@H](CC(N)=O)NC1=O`, the inhibition was 32% (Islet amyloid polypeptide, mature peptide 1-37 (IAPP, Homo sapiens, UniProt P10997); amyloid fibril formation, inhibitor, ThT fluorescence; concentration not given, 24 to 30 h, 37 °C, compound ratio 1:1, together with: hIAPP 20 µM).
`COc1ccc(Nc2c3c(nc4ccccc24)CCC(C)C3)nc1` (centres unmarked) gave an inhibition of 22.2% (ache; enzyme activity, inhibitor, Ellman; 50 µM).
The inhibition of `COc1ccc(Nc2c(NC3CCN(Cc4ccccc4)CC3)c(=O)c2=O)cc1OC` is reported as 49.6% (ache; enzyme activity, inhibitor, Ellman; 12.5 µM).
The inhibition of `O=C(NCc1ccc(Cl)cc1Cl)c1cn(Cc2ccc(F)cc2)cc(O)c1=O` is reported as 15% (Tripartite terminase subunit 3 C-terminal nuclease domain; endonuclease activity, inhibitor, ELISA; 20 µM).
For `CC(C)C(=O)Nc1ccccc1-c1nn[nH]n1`, inhibition read “no inhibition” (VIM-2 (Escherichia coli, UniProt Q5U7L7); enzyme activity, inhibitor; concentration not given).
For `Clc1ccc2nc3c(c(Nc4ccc5ccccc5n4)c2c1)CCCC3`, the inhibition was 89.9 ± 2% (ache; 100 µM).
`COc1ccc2cc(/C=C/c3cc[n+](Cc4ccc(F)cc4)cc3)ccc2c1` has an inhibition of 85% (Amyloid-beta precursor protein, amyloid-beta 1-42 peptide (Rattus norvegicus, UniProt P08592); Abeta42 self-aggregation, thioflavin T; 10 µM).
`O=C(C[P+]([Au-][Cl])(c1ccccc1)c1ccccc1)[O][Ti+2][O]C(=O)C[P+]([Au-][Cl])(c1ccccc1)c1ccccc1.c1cc[cH-]c1.c1cc[cH-]c1` has an inhibition of ≥ 50% (PRKCQ (Homo sapiens, UniProt Q04759); kinase activity; 10 µM).
For `CC(C)C[C@@H]1NC(=O)[C@H](C(C)C)NC(=O)[C@H](C)NC(=O)[C@H](Cc2ccc(O)cc2)NC(=O)[C@H](CCC(N)=O)NC(=O)[C@H](CC(C)C)NC(=O)[C@@H](Cc2ccc(O)cc2)NC(=O)CSC[C@@H](C(N)=O)NC(=O)[C@H](CCC(=O)O)NC(=O)[C@H](CCCNC(=N)N)NC(=O)[C@H](CCCNC(=N)N)NC(=O)[C@H](CCCCN)NC(=O)[C@H](Cc2c[nH]cn2)NC(=O)[C@H](CCCNC(=N)N)NC1=O`, inhibition read “inactive” (CTSB; enzyme activity; 10 µM).
For `CC(C)CC(O)(CC(C)C)c1cn(C(=O)N2CCCC2)nn1`, inhibition read “inhibited” (Acylamino-acid-releasing enzyme (Apeh, Mus musculus, UniProt Q8R146); probe labelling, inhibitor, gel-based competitive ABPP; mouse T-cell proteome; 10 nM, 30 min).
`CC(C)C[C@@H]1NC(=O)[C@@H](NC(=O)CN)CSSC[C@@H]2NC(=O)[C@@H]3CSSC[C@@H](C(=O)N[C@@H](CC(N)=O)C(=O)N[C@@H](Cc4ccccc4)C(=O)N[C@@H](CO)C(=O)N[C@@H](Cc4ccccc4)C(N)=O)NC(=O)[C@H](CC(C)C)NC(=O)[C@H](CCCCN)NC(=O)[C@H](Cc4ccccc4)NC(=O)[C@H](CC(C)C)NC(=O)[C@H](CCCCN)NC(=O)[C@H](CO)NC(=O)[C@H](CSSC[C@H](NC(=O)[C@H](CCCCN)NC(=O)[C@H](Cc4c[nH]c5ccccc45)NC(=O)[C@H](Cc4c[nH]c5ccccc45)NC(=O)[C@H](Cc4ccccc4)NC(=O)[C@H](CCC(=O)O)NC1=O)C(=O)N[C@@H](CC(N)=O)C(=O)N1CCC[C@H]1C(=O)N[C@@H](CC(N)=O)C(=O)N[C@@H](CC(=O)O)C(=O)N[C@@H](CC(=O)O)C(=O)N[C@@H](CCCCN)C(=O)N3)NC(=O)[C@H](CCCCN)NC(=O)[C@H](CC(C)C)NC(=O)[C@H](CCCCN)NC(=O)[C@@H]1CCCN1C(=O)[C@H](CCCNC(=N)N)NC2=O` gave an inhibition of 20 ± 5% (Piezo1 (Mus musculus, UniProt E2JF22); 2.5 µM, cell-based).
For `C[C@]12CC[C@H]3[C@@H](CCC4=CC(=O)C=C[C@@]43F)[C@@H]1CCC2=O`, the inhibition was 30% (AKR1C2; enzyme activity, inhibitor, absorbance; 100 µM, pH 9).
`Cc1cccnc1Nc1c2c(nc3ccccc13)CCCC2` gave an inhibition of 65.7% (ache; enzyme activity, inhibitor, Ellman; 100 µM).
For `CC(=O)NC(Cc1ccc(Br)c(Cl)c1)C(=O)N[C@@H](C)C(=O)N1CCC[C@H]1C(=O)N1CCC[C@H]1C(=O)N[C@@H](CCC(=O)O)C(=O)N[C@@H](Cc1c[nH]cn1)C(=O)N[C@@H](CO)C(=O)N[C@H](C(=O)N[C@@H](C)C(N)=O)[C@@H](C)OP(=O)(O)O` (some centres unmarked), the inhibition was 0.35% (TEK (Homo sapiens, UniProt Q02763); cell-free assay, inhibitor; 10 µM).
`O=C(O)/C=C/c1ccc(O)cc1` has an inhibition of 57.5% and 63.5% (alpha-glucosidase; enzyme activity; 250 µg/mL).
The inhibition of `COc1ccc(Nc2c3c(nc4ccccc24)CCCC3)cc1` is reported as 24% (ache; enzyme activity, inhibitor, Ellman; 50 µM).
With `C[C@]12CC[C@@H]3c4cc(Cl)c(O)c(Cl)c4CC[C@H]3[C@@H]1CCC2=O` the inhibition was 46.9% (AKR1C1 (Homo sapiens, UniProt Q04828); enzyme activity, inhibitor, absorbance; 10 µM, pH 9).

For quick reference, copied from above:
`C[C@]12CC[C@@H]3c4ccc(O)c(Cl)c4CC[C@H]3[C@@H]1CCC2=O` has an inhibition of 25% (AKR1C2; enzyme activity, inhibitor, absorbance; 100 µM, pH 9).
`COc1ccnc(Nc2c3c(nc4ccccc24)CCCC3)c1` gave an inhibition of 96.2 ± 4.11% (ache; 100 µM).
`O=c1c(NCc2ccc(Br)cc2)c(NC2CCN(Cc3ccccc3)CC2)c1=O` gave an inhibition of 42.9% (ache; enzyme activity, inhibitor, Ellman; 12.5 µM).
`C[C@]12CCC[C@H]1[C@@H]1CCc3c(cc(Br)c(O)c3Br)[C@H]1CC2` gave an inhibition of 68% (AKR1C2; enzyme activity, inhibitor, absorbance; 10 µM, pH 9).
